Published values of several laboratories.
± marks the error that the study gave.

Compound = CCCC(CCC)C(=O)[O][Pt]([NH2])([NH2])([Cl])([Cl])[O]C(=O)C(Cl)Cl; cell line = 2008 cisplatin-sensitive; test = cytotoxicity, MTT; setting = 72 h; IC50 = 1.12 ± 0.2 µM
Compound = Cc1sc2c(c1C)C(c1ccc(Cl)cc1)=N[C@@H](CC(=O)N1CCN(CC3CCN(C(=O)CN4CCC(Nc5cccc6c5cc(C#CCNc5ccc(P(C)(C)=O)cc5)n6CC(F)(F)F)CC4)CC3)CC1)c1nnc(C)n1-2; cell line = A549 p53 Y220C isogenic; test = cell growth; IC50 = 1 µM
Compound = COc1ccc2cc([C@H](C)C(=O)[O][Pt-2]34([O]C(=O)[C@@H](C)c5ccc6cc(OC)ccc6c5)([NH2+][C@@H]5CCCC[C@H]5[NH2+]3)[O]C(=O)C(=O)[O]4)ccc2c1; cell line = LO-2 normal liver; test = cell growth, MTT; setting = 48 h; IC50 = 15.3 ± 2.5 µM
Compound = Cc1c(C)n(-c2c(C(C)C)cccc2C(C)C)c(=[Se])n1-c1c(C(C)C)cccc1C(C)C.[Cl][Ag]; cell line = A2780 ADR; test = MTT; setting = 72 h; IC50 = 0.3 ± 0.02 µM
Compound = COc1ccc([C@@H]2CC(=O)c3c(O)cc(O[C@@H]4O[C@H](CO[C@@H]5O[C@@H](C)[C@H](O)[C@@H](O)[C@H]5O)[C@@H](O[C@H]5O[C@H](CO)[C@@H](O)[C@H](O)[C@H]5O)[C@H](O)[C@H]4O)cc3O2)cc1O; cell line = MRC5; test = cell growth or viability, MTS; setting = 72 h; IC50 = 149 µg/mL
Compound = CC(C)c1cccc(C(C)C)c1-n1ccn(-c2c(C(C)C)cccc2C(C)C)c1=[Se].[Cl][Ag]; cell line = H157 spheroids; test = acid phosphatase; setting = 72 h, 3D spheroid; IC50 = 34.1 ± 2.2 µM
Compound = Cn1ccn(N=Cc2ccccc2SSc2ccccc2C=Nn2ccn(C)c2=S)c1=S; cell line = breast, ovarian, colorectal cancer cells; test = MTT; setting = 72 h, four cancer cell lines; IC50 = < 0.4 µM
Compound = Cc1nc(Nc2ncc(C(=O)Nc3c(C)cccc3Cl)s2)cc(N2CCN(CCOC(=O)[C@@H](N)CCC(=O)O)CC2)n1; cell line = BV-173; test = cell growth or viability, MTT; setting = 72 h; IC50 = 6.07e-05 µM
Compound = Cc1cc(C)c(N=[C](NCc2cccc(N)c2)[AuH][Cl])c(C)c1; cell line = OVCAR-3; test = cell growth or viability; IC50 = > 100 µM
Compound = COc1ccc(-c2c(O)oc3c(CC=C(C)C)c(O)cc(O)c3c2=O)cc1; cell line = J774.2; test = NO release, inhibitor; setting = LPS-stimulated; IC50 = 23.3 µg/mL
Compound = CCCCc1cc(CN(Cc2ccccn2)Cc2ccccn2)c(O)c(CN(Cc2ccccn2)Cc2ccccn2)c1; cell line = CHO-K1; test = cytotoxicity; setting = 72 h; IC50 = 38 ± 1 µM
Compound = CC(C)c1cccc(C(C)C)c1N1CCN(c2c(C(C)C)cccc2C(C)C)C1=[Se].[Cl][Au]; cell line = PSN1; test = cell growth or viability, MTT; setting = 72 h; IC50 = 1.4 µM
Compound = CSC[C@@H]1C(=O)O[C@H]2[C@H]1CC/C(C)=C/CC[C@@]1(C)O[C@@H]21; cell line = KG-1a; test = cell growth or viability, MTT; setting = 72 h; IC50 = > 50 µM
Compound = CC(C)c1cccc(C(C)C)c1-n1c(Cl)c(Cl)n(-c2c(C(C)C)cccc2C(C)C)c1=[Se].[Cl][Au]; cell line = H157 spheroids; test = acid phosphatase; setting = 72 h, 3D spheroid; IC50 = 8.7 ± 1.1 µM
Compound = O=C(CCCc1ccc2c(c1)CCCC2)N[C@@H]1O[C@H](CO)[C@@H](O)[C@H](O)[C@H]1O; cell line = L1210; test = cell growth or viability; setting = 48 h; IC50 = > 250 µM

Some of these lines once more:
Compound = Cc1c(C)n(-c2c(C(C)C)cccc2C(C)C)c(=[Se])n1-c1c(C(C)C)cccc1C(C)C.[Cl][Ag]; cell line = A2780 ADR; test = MTT; setting = 72 h; IC50 = 0.3 ± 0.02 µM
Compound = COc1ccc([C@@H]2CC(=O)c3c(O)cc(O[C@@H]4O[C@H](CO[C@@H]5O[C@@H](C)[C@H](O)[C@@H](O)[C@H]5O)[C@@H](O[C@H]5O[C@H](CO)[C@@H](O)[C@H](O)[C@H]5O)[C@H](O)[C@H]4O)cc3O2)cc1O; cell line = MRC5; test = cell growth or viability, MTS; setting = 72 h; IC50 = 149 µg/mL
